Measurements from different studies.
Compare with care: the assays were run in different laboratories. Values joined by “and” are separate records of one study, mostly repeats; a detail may differ. Numbers after ± are the reported error.

For C[C@@H](Nc1cc(F)cc(F)c1)c1cc(C(=O)N(C)C)cc2c(=O)cc(N3CCOCC3)oc12, “related serious adverse events” read 1.6% (item: Hypokalemia; advanced solid tumour patients; oral, dose not given, dose finding).
COc1ccnc(C(=O)N[C@H]2COC(=O)[C@H](Cc3ccccc3)[C@@H](O)[C@H](C)OC2=O)c1O gave a DT50 of 10.2 days (aerobic dark soil incubation; soil; geometric mean of 4 soils, persistence endpoint).
For C[C@@H]1CCO[C@H]2Cn3cc(C(=O)NCc4ccc(F)cc4F)c(=O)c(O)c3C(=O)N12, the plasma concentration was 1190 ng/mL (population PK, post-hoc; infants aged ≥1 months, 3 to <6 kg, plasma; oral, 10 mg dispersible tablet, 24 h, steady state, geometric mean).
For Cc1cc(/N=N/c2ccc(S(=O)(=O)Nc3ccccn3)cc2)c(N)cc1O, the viability was 101% (HBL-1; 1 µM, 120 h).
O=C(OC(C(F)(F)F)C(F)(F)F)N1CCN(Cc2cccc(Oc3ccccc3)c2)CC1 has a Ktrans of 0.0013 min⁻¹ (PET blocking study; rhesus monkey, brain HIP; 0.01 mg/kg, compound pretreatment, added: [18F]T-401 tracer).
COc1ccc2[nH]c([S+]([O-])Cc3ncc(C)c(OC)c3C)nc2c1 (stereo not shown) gave an AUC(0-t) of 232 ng·h/mL (healthy Chinese volunteers CYP2C19 RM, plasma; oral, 20 mg single dose, fasted).
C=CC[C@@H]1/C=C(\C)C[C@H](C)C[C@H](OC)[C@H]2O[C@@](O)(C(=O)C(=O)N3CCCC[C@H]3C(=O)O[C@H](/C(C)=C/[C@@H]3CC[C@@H](O)[C@H](OC)C3)[C@H](C)[C@@H](O)CC1=O)[C@H](C)C[C@@H]2OC: “plasma urea level” 6.2 ± 0.6 mmol/L (Wistar Kyoto rat, male, plasma; ip, 0.5 mg/kg/day, day 28, at sacrifice).
CC(C)(C)NCC(O)c1cc(O)cc(O)c1 (stereo not shown) has a fraction unbound of 0.71 (equilibrium dialysis; rat, lung homogenate).
For OC[C@H]1O[C@@H](c2ccc(Cl)c(Cc3ccc(O[C@H]4CCOC4)cc3)c2)[C@H](O)[C@@H](O)[C@@H]1O, “change in ALT” read 1 U/L (Japanese type 1 diabetes patients, blood; 25 mg, day 28; reference: baseline).
For Cc1cccc(-c2ccc([C@@H]3[C@@H](CO)N4CCCCN(S(=O)(=O)c5cccs5)C[C@@H]34)cc2)c1, the EC50 was 800 nM (IDE (Homo sapiens, UniProt P14735); enzyme activity, inhibitor, fluorogenic kinetic; added: Mca-RPPGFSAFK(Dnp)-OH substrate).
Under “patients with adverse event”, Cc1cc(NC2CCN(C(=O)OC3CCN(C(=O)/C=C/CN(C)C)C3)CC2)n2ncc(C(C)C)c2n1 (stereo not shown) is recorded as 12% (Phase I dose escalation CTCAE v4.0, item: peripheral oedema; patients with advanced solid tumours; dose not given, QD dosing any grade).
O=C(N/N=C/c1ccccc1O)c1ccncc1 gave a stability of 98.3% (ADS buffer; 57 µM, 7 days, -80 °C, long-term storage).
With CCc1c(-c2ccccc2)c(-c2ccccc2)nn1-c1ccccc1-c1cccc(OCC(=O)O)c1 the Clast was 21.6 ng/mL and 12.2 ng/mL and 7.2 ng/mL (Sprague-Dawley rat; intravenous, dose not given).
For C[C@H]1Oc2cc(cnc2N)-c2c(nn(C)c2C#N)CN(C)C(=O)c2ccc(F)cc21, the clearance was 156 mL/min (population PK; patients with mild hepatic impairment (NCI sample B), plasma; oral, 100 mg, mean, single dose).
Under “any treatment-related adverse event”, C=CCN1CC(=O)N2[C@@H](Cc3ccc(O)cc3F)C(=O)N(Cc3cccc(N4CC(N5CCN(CC)CC5)C4)n3)C[C@@H]2N1C(=O)NCc1ccccc1 is recorded as 0% (advanced solid tumour patients; oral, 100 mg twice daily, grade ≥3, dose-escalation).
C[C@@H](O)CCOC(=O)C[C@@H](C)O has a heart rate of 73 beats/min (human; oral drink, dose not given, 180 min post dose, mean).
N#Cc1ccc2c(c1)[C@H]1CCCN(C(=O)c3ccc4[nH]cnc4c3)[C@H]1C2 — result for “ACTH level change”: 1.1 pmol/L (human; 10 mg, day 7; reference: baseline).
Cc1cc(-c2nccc3c2ccn3CC(=O)Nc2ccc(-c3cnccn3)cn2)ccn1 — result for “subjects with infections”: 11.1% (human; 15 mg once daily, multiple ascending dose).
Under “TEAE sinus bradycardia”, O=C(O)CCC(=O)O.[2H]C([2H])([2H])Oc1cc(C)c2[nH]ccc2c1CN1CC[C@@H](C2CC2)C[C@H]1c1ccc(C(=O)O)cc1 is recorded as 16.7% (healthy Chinese subjects; 50 mg, single ascending dose).
Under “patients with adverse event”, CNC(=O)c1ccc(-c2cnc3ncc(Cc4ccc5ncccc5c4)n3n2)cc1F is recorded as 0% (item: Nausea; cancer patients; oral, dose not given, dose escalation, grade 3-4).
C=C(C)[C@@H](CC=C(C)C)C[C@@]12C[C@@H](CC=C(C)C)C(C)(C)[C@@](CC=C(C)C)(C(=O)C(C(=O)c3ccc(O)c(O)c3)=C1O)C2=O gave a viability of 54.7% (HBL-1; 0.1 µM, 120 h).
The ulcer index of COc1ccc(/C=N/NC(=O)Cn2c(-c3ccc(S(C)(=O)=O)cc3)nc3cc(C)ccc32)cc1 is reported as 34.6% (rat, stomach; concentration not given, 4 h; reference: indomethacin).
